Results collected from several papers.
Compare with care: the assays were run in different laboratories. ± marks the error that the study gave.
Cell line: MDA-MB-231

CO[C@H]1[C@H](O[C@H]([C@H]2O[C@@H](n3ccc(=O)[nH]c3=O)[C@H](O)[C@@H]2O)[C@H](NCCCNC(=O)[C@@H](NC(=O)[C@@H](NC(=O)N[C@H](C(=O)O)C(C)C)[C@@H]2CCN=C(N)N2)[C@@H](OC(=O)CCCCCCCCCCCCN(O)C(=N)N)C(C)C)C(=O)O)O[C@H](CN)[C@H]1O — apoptotic cells (annexin V/7-AAD flow cytometry; 1.0 µM, 48 h; reference: untreated): ~1.5 fold
C=C1CN(S(=O)(=O)c2ccc(C)cc2)CCCN(CCc2ccccc2)CCCN(S(=O)(=O)c2ccc(C)cc2)C1.Cl — mammosphere formation (1 µM, 48 h, added: progranulin 1 µg/mL): inhibited
O=P(O)(O)C(O)(Cn1ccnc1)P(=O)(O)O — viability (AlamarBlue; 3.8 µM, 72 h; reference: control): 97 ± 6%
Nc1ccccc1NC(=O)c1ccc(CNc2ccc(NC3=C(Cl)C(=O)c4cccnc4C3=O)cc2)cc1 — early apoptotic cells (annexin V/PI staining, measured: annexin V+/PI-; 8 µM, 72 h): 44.1%
CC(C)[C@H](NC(=O)c1cc(Cl)ccc1OCCNC(=O)OC(C)(C)C)C(=O)Nc1ccc([N+](=O)[O-])cc1Cl — cleaved PARP level (Western blot; 1, 5, 10 µM, 48 h): increased
CCCNC(=O)[C@H]1O[C@@H]1C(=O)N[C@H](C(=O)N1CCC[C@H]1C(=O)OC)[C@@H](C)CC — phototoxicity index (72 h; reference: dark EC50 over light EC50): 0.6
Cc1[nH]c2ccccc2c1C1=C(Cl)C(=O)C(Cl)=C(N2CCOCC2)C1=O — ROS level (DCFH-DA; 1 µM, 24 h): increased
OCc1ccc(Nc2ccc3c(Nc4cccc(C(F)(F)F)c4)ncnc3c2)cc1 — G0/G1 phase cells (IC50, 24 h): 22.3%

A few entries again:
O=P(O)(O)C(O)(Cn1ccnc1)P(=O)(O)O — viability (AlamarBlue; 3.8 µM, 72 h; reference: control): 97 ± 6%
